{"data": "Experimental data collected from several papers", "note": "A part holds a random share of what one study measured."}
{"data": "Study 1", "target": "Sal-like protein 4, full length isoform A (SALL4, Homo sapiens, UniProt Q9UJQ4, residues 1-1053)", "method": "universal PBM", "molecule type": "double-stranded DNA, one strand shown", "matrix": "in vitro", "concentration": "600 nM", "setting": "8-mer, flanks averaged, mean of replicates", "direction": "higher = stronger binding", "sequence of UniProt Q9UJQ4 (whole entry, looked up)": "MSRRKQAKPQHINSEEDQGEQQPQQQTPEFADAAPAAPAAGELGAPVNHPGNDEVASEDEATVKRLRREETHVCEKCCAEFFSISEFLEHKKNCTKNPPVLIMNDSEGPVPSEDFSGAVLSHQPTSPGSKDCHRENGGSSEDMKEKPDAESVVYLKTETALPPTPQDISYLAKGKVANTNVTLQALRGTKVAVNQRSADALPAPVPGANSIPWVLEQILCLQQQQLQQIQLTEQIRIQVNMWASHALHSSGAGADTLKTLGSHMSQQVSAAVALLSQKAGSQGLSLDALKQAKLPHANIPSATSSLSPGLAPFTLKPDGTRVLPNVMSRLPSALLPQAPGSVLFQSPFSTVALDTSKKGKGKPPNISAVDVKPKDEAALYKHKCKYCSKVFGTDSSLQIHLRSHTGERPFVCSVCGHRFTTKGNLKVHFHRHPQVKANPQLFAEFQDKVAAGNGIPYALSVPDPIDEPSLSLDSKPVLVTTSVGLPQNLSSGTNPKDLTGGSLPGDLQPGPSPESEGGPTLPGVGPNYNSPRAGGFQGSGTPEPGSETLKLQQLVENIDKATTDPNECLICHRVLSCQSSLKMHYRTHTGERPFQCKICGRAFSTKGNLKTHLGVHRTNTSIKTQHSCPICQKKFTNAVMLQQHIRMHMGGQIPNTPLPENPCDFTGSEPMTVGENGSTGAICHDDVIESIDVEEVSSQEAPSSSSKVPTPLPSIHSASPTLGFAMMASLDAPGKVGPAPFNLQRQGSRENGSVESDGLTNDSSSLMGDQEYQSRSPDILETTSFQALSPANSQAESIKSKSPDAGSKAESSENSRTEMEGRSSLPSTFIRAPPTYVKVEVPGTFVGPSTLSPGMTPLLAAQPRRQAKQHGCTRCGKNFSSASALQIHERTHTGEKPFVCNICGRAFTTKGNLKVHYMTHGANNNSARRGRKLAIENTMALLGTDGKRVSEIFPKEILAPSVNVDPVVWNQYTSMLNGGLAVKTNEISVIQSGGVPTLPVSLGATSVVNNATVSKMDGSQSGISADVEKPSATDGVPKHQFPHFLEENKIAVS"}
{"Oligonucleotide": "CGCCGTGC", "E-score": -0.187}
{"Oligonucleotide": "ATATTAGC", "E-score": 0.32}
{"Oligonucleotide": "ATGAGTAC", "E-score": 0.201}
{"Oligonucleotide": "GAGTCAGA", "E-score": 0.111}
{"Oligonucleotide": "GGTATACC", "E-score": -0.104}
{"Oligonucleotide": "AGCGCAGC", "E-score": -0.277}
{"Oligonucleotide": "ACGCTGCA", "E-score": -0.165}
{"Oligonucleotide": "ACAACGAT", "E-score": 0.173}
{"Oligonucleotide": "GCTTCTAA", "E-score": -0.123}
{"Oligonucleotide": "AATAGTGA", "E-score": 0.241}
{"Oligonucleotide": "ACCGTCCA", "E-score": -0.162}
{"Oligonucleotide": "CGCGTCAG", "E-score": -0.261}
{"Oligonucleotide": "CAAGGTTA", "E-score": -0.00303}
{"Oligonucleotide": "GATTGCCC", "E-score": -0.158}
{"Oligonucleotide": "GCACCCCA", "E-score": -0.294}
{"Oligonucleotide": "AAACCAGG", "E-score": -0.126}
{"Oligonucleotide": "GCTGCGTA", "E-score": -0.142}
{"Oligonucleotide": "GAGCCCTA", "E-score": -0.104}
{"Oligonucleotide": "ACTTTGAG", "E-score": 0.00272}
{"Oligonucleotide": "CTGTCTTC", "E-score": -0.0697}
{"Oligonucleotide": "GTTGGTAA", "E-score": 0.122}
{"Oligonucleotide": "CACTATTC", "E-score": 0.159}
{"Oligonucleotide": "GTGGGTTA", "E-score": 0.103}
{"Oligonucleotide": "CGGAACCC", "E-score": -0.212}
{"Oligonucleotide": "AGCTCTGA", "E-score": -0.139}
{"data": "Study 2", "target": "Fragile X messenger ribonucleoprotein 1, C-terminal low-complexity region (Fmr1, Mus musculus, UniProt P35922)", "method": "RNA Bind-n-Seq", "molecule type": "RNA", "matrix": "in vitro", "concentration": "200 nM", "setting": "whole 134-nt RNA, ends assumed", "added": "150 mM KCl", "reference": "input library", "direction": "higher = stronger binding", "all sequences stand within": "GGGAGUUCUACAGUCCGACGAUC … UGGAAUUCUCGGGUGUCAAGG"}
{"Oligonucleotide": "CUGUGCUACACAUCGUAUGUACCGAAUCGGGGAAAAAAAGGGAAAAAAAGGGAAAAAAAGGGAAAGUAUUAUGUUACGCCGUUCGGAUCU", "log2 enrichment": -0.533}
{"Oligonucleotide": "AACAGACAACACGCACCCACACAGACACAGAGGGAAGGGGUUGGGAUGGGGACAGGGUGCACAGCAGGGCGGGGUAGGACCCCAGCCCCU", "log2 enrichment": 1.14}
{"Oligonucleotide": "AAGUCCUGUGCUACACAUCGUAUGUACCGAAUCGGUUUGGAAAAAAAGGAAAAAGGAAAGUAUUAUGUUACGCCGUUCGGAUCUGCACUU", "log2 enrichment": -0.898}
{"Oligonucleotide": "AAUUCUCAUUUCUCGACAUAAAGCCUUGUCUAAAGUGAGAUGUUUUCCAGGUCAUACAUAGGUUUCUCCCUGGGGUAAUUGGAAGUUCUU", "log2 enrichment": -1.48}
{"Oligonucleotide": "GUCCUGUGCUACACAUCGUAUGUACCGAAUCGGGUUUUGGGGUUUUGGGGUUUUGGGGAAAGUAUUAUGUUACGCCGUUCGGAUCUGCAC", "log2 enrichment": 0.397}
{"Oligonucleotide": "CACAGACAACACGCACCCACACCGACACAGAGGGAAGGGGUUGGGAUGGGGACAGGGUGCACAGCAGGGCGGGGUAGGACCCCAGCCCCU", "log2 enrichment": 1.36}
{"Oligonucleotide": "CACAGACAACACGCACCCACACAGACACAGAGGGAAGGGGUUGGGAUGGGGACAGGGUGCACAGCAGGGCGGGGUAGGACCCCAGCCCUU", "log2 enrichment": 1.35}
{"Oligonucleotide": "ACCAUGCAGGUGGGCAUCUUUGGGAAGUGGGGCAAUGGGGGGAUAGGGAGGGGGGUAACACUUUGGGAACAGGUGGUCCCAGGUCGUUUC", "log2 enrichment": 0.72}
{"Oligonucleotide": "UAACUUUAGAGGAGGAUCUGAUGGAUAUGGCAGUGGACGUGGAUUUGGGGAUGGCUAUCAUGGGUAUGGAGGAGGACCUGGAGGUGGCAA", "log2 enrichment": 0.258}
{"Oligonucleotide": "AGUCCUGUGCUACACAUCGUAUGUACCGAAUCGGGGUGGGGUGGGGAAAAAAAGGGGAAAGUAUUAUGUUACGCCGUUCGGAUCUGCACU", "log2 enrichment": 0.772}
{"Oligonucleotide": "AGUCCUGUGCUACACAUCGUAUGUACCGAAUCGGGGUUUUUUUGGGGUGGGGUGGGGAAAGUAUUAUGUUACGCCGUUCGGAUCUGCACU", "log2 enrichment": 1.29}
{"Oligonucleotide": "CCUGUGCUACACAUCGUAUGUACCGAAUCGGAAAAAAAGGAAAAAAAGGGGAAAAAAAGGGAAAGUAUUAUGUUACGCCGUUCGGAUCUG", "log2 enrichment": -1.05}
{"Oligonucleotide": "UGGUGUUAUUUUUGCACUACAAGGGCUCUGAAGACUGCCAGGCUUGAAAUGAAGAACGAUGUCACCUGCCUAUCACAGCCAGGUGACAAU", "log2 enrichment": -2.27}
{"Oligonucleotide": "UCAAGUCCUGUGCUACACAUCGUAUGUACCGAAUCGGUUUGGGGUUUGGGUUUGGAAAGUAUUAUGUUACGCCGUUCGGAUCUGCACUUC", "log2 enrichment": -0.278}
{"data": "Study 3", "target": "RNA binding protein fox-1 homolog 2, RRM domain, GST-SBP tag (RBFOX2, Homo sapiens, UniProt O43251-10, residues 100-194)", "method": "RNA Bind-n-Seq", "molecule type": "RNA", "matrix": "in vitro", "concentration": "365 nM", "setting": "natural RNA segment, single round, ends assumed", "reference": "no-protein control", "direction": "higher = stronger binding", "all sequences stand within": "GGGAGUUCUACAGUCCGACGAUC … UGGAAUUCUCGGGUGCCAA", "Residues (chain)": "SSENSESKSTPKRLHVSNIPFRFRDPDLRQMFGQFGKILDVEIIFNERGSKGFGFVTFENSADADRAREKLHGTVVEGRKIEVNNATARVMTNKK"}
{"Oligonucleotide": "UUUUGUUCCUUCAUAGGAAAAAAAUGUAUAAAUUUGUAAAUCUUAAUUCAAAGAUAACUUUUGUGUGGGUAUUGAGUUUGGAUCGGUUUUUUGUCUUGGUGUGGGCUGUG", "RBNS enrichment (R)": 1.39}
{"Oligonucleotide": "CAGUGUCGGCUAAGGCCUUCCUAGCUCUGGAGGUGACAGGGGAACCUCCAGGUGGAGGAACCACACGGCAGAGUUCUGUGUGUCUGUGUUGAAGCUAGAGGCGGCUAGAG", "RBNS enrichment (R)": 0.956}
{"Oligonucleotide": "AGUGUAUAACAUGAAGAUAACAUUUUGUCUUUGACCACUGUCUUUUGAAUGGGCCCACAGUGUUUAUGUACUCUUAACAACUCACAGAAUAAUACAUGUUCACUUUAUUU", "RBNS enrichment (R)": 0.439}
{"Oligonucleotide": "AGCAGCCAGCAUUCAGUGGCCUUGUCACCAAGCUCCACACCUCCUCCUGGUGCUGGCUUUGGUGACAUCACAAGGCCCCUCCAGGUGCAGGGGCUUCUGUUUGGCAGGCC", "RBNS enrichment (R)": 0.23}
{"Oligonucleotide": "UCCCUGCCUGCACAAACCUACAUGUACAUACCAUGGAUUAGAGACACUUGCAGGACUGAAAGGCUGCUCUGGUGAGGCAGCCUCUGUUUAAACCGGCCCCACAUGAAGAG", "RBNS enrichment (R)": 4.05}
{"Oligonucleotide": "AUAGGUAUGUAAUGUGGAACCGACACUGGGGAGAUCUGAAGGAAGAAGGCAUGAGGCACUCUCUGAUGGCUUGCUAGUCAAAACUGGAAGGAUUUUCCUUAGGACAGGUG", "RBNS enrichment (R)": 2.65}
{"Oligonucleotide": "GGGGAGGAAUAAUUUUAUAAUUGCAUUUCCAGGUAUUUUUCAAGAUUACGAAAAUAUGCUACUCUGAUGUGUUAUGGUUCCUGAAUUUCUUUUCUUUCUCACCCUCUUUG", "RBNS enrichment (R)": 0.503}
{"Oligonucleotide": "GAUUUCCAGAAGUAAGUAGUUUCCCCUUUCCUAGUCUUCUGUGUAUGUGAUGUUGUUAAUUUCUUUUAUUGCAUUAUAAAAUAAAAGGAUUAUGUAUUUUUAACUAAGGU", "RBNS enrichment (R)": 2.68}
{"Oligonucleotide": "ACUCUCUUUUCUUGUUCUUUUUGUGCUCAAGACCCACUGUUAUAGGAAUAAAGUUUAUGAGCUCAAGAACAUAACUGCUUUUUUUAGGUAUCUGUGUGUUCAUUAUCUGU", "RBNS enrichment (R)": 0.382}
{"Oligonucleotide": "GGAUUUCUUUUGACAAUACUGUUGGUACCUAUUACUUGGGGGAGGACAUGUUGCAGAAGACCAGAUCAUUUUUAUACAGAAUGUGAAAUACUGAUACAGUUAUUCUUUUU", "RBNS enrichment (R)": 0.572}
{"Oligonucleotide": "UUCACAGGGAUCAUUCUCUUCUCUCCUUUUUAAUGAAGUCCAAAAUCACAGGAAGUGAAGAACAUUUCAUUUAUCUGUUCUAAAAUUUCUGCUGUCAGAGUGUCUAAGAG", "RBNS enrichment (R)": 0.328}
{"Oligonucleotide": "AUGGAAGUUGCUUCAGAUAUCUGAUACUGUGAAUGUUUGAACAUAUCCGUGGCCUUCACCUCUCCAGCUACCCUUUUACCUCAUCAGAAGCAGUGGCUCAGCUAAGUGCU", "RBNS enrichment (R)": 0.765}
{"data": "Study 4", "target": "Interferon regulatory factor 5, full length, phosphomimetic (IRF5, Homo sapiens, UniProt Q13568-2, residues 1-514, S451D/S453D/S456D/S462D)", "method": "protein-binding microarray", "molecule type": "double-stranded DNA, one strand shown", "matrix": "in vitro", "concentration": "940 nM top", "setting": "60-bp whole probe", "added": "salmon DNA 0.4 mg/ml", "reference": "random background probes", "direction": "higher = stronger binding", "all sequences stand within": "GCCTAGCAC … GTCTTGATTCGCTTGACGCTGCTG"}
{"Oligonucleotide": "TTAGGACTGCTTTTCCTCTAGTGCTAG", "fitted relative affinity [z-score]": -0.213}
{"Oligonucleotide": "TTAGATTTCGGGTTTCAATTAGTGCTA", "fitted relative affinity [z-score]": 2.39}
{"Oligonucleotide": "TTAGGTATGCTACTGCTTTAGTGCTAG", "fitted relative affinity [z-score]": -0.575}
{"Oligonucleotide": "AGTGTTTGCCCTATTTAAAAGTGCTAG", "fitted relative affinity [z-score]": 0.875}
{"Oligonucleotide": "TTAGGACTGGGTCTCGGTCAGTGCTAG", "fitted relative affinity [z-score]": 0.87}
{"Oligonucleotide": "GACGGTATCGGTATGGGGACGTGCTAG", "fitted relative affinity [z-score]": 8}
{"Oligonucleotide": "TCAGAAATTCCTCTGAGACTGTGCTAG", "fitted relative affinity [z-score]": -0.422}
{"Oligonucleotide": "TTAGGTGTCCTACTGCTTTAGTGCTAG", "fitted relative affinity [z-score]": -0.208}
{"Oligonucleotide": "TACGGTTTCGACTATCGGGACGTGCTA", "fitted relative affinity [z-score]": 7.6}
{"Oligonucleotide": "GACGAACTGGGGACTCGAGACGTGCTA", "fitted relative affinity [z-score]": -0.0835}
{"Oligonucleotide": "TTAGGTCTCGGACTGGTTTAGTGCTAG", "fitted relative affinity [z-score]": 1.11}
{"Oligonucleotide": "TTAGGTATCGGTTTCGGTGAGTGCTAG", "fitted relative affinity [z-score]": 11.7}
{"Oligonucleotide": "GACGGGATCCTTCTCCTGACGTGCTAG", "fitted relative affinity [z-score]": -0.27}
{"Oligonucleotide": "TCATTTTGCCCTATTTAACTGTGCTAG", "fitted relative affinity [z-score]": 1.49}
{"Oligonucleotide": "GACGATATTGGGTTTCGAGACGTGCTA", "fitted relative affinity [z-score]": 2.54}
{"Oligonucleotide": "TTAGGACTGGACACGGGGTTAGTGCTA", "fitted relative affinity [z-score]": -0.178}
{"Oligonucleotide": "TTAGATTTCAGTTTCGCTTAGTGCTAG", "fitted relative affinity [z-score]": 6.1}
